Results gathered from unrelated publications.
Several values in a cell are separate wells, animals, samples, runs or records. Numbers after ± are the reported error.

SMILES | assay | test system | setting | scale | quantity | value
O=C(O)/C=C/C(=O)O.Oc1cccc2[nH]cc(CCNCc3ccccc3)c12 | – | C57BL/6J mice | subcutaneous, 10 mg/kg, 30 min | – | distance travelled | 1880 ± 295 cm
CCCCC1(CCCC)CN(c2ccccc2)c2cc(SC)c(OCC(=O)N[C@@H](C(=O)NCC(=O)O)c3ccccc3)cc2S(=O)(=O)C1 | item: HDL cholesterol | human, serum | 15 mg once daily, day 9 | – | serum HDL-C | 45 mg/dL
CCCCCN1C[C@H](O)[C@@H](O)[C@H](O)[C@@H]1CO | – | Hexb-/- mouse, mixed sex | 300 mg/kg/day | – | median survival time | 159 days
C[C@]12CC[C@H](O)C[C@H]1CC[C@@H]1[C@@H]2CC[C@]2(C)[C@@H](c3ccc(=O)oc3)CC[C@]12O | – | female nude mouse LCC2 xenograft | 0.5 mg/kg, day 7, tamoxifen-resistant | – | tumour volume | 43.7 mm3 and 43.5 mm3 and 25.9 mm3 and 68.4 mm3 and 42.1 mm3 and 59.2 mm3 and 48.6 mm3
C[C@]1(CO)Cc2ncn(-c3ccc(C#N)c(Cl)c3)c2C(=O)O1 | aldosterone synthesis, inhibitor, item: cortisol | healthy Japanese adults, urine | 40 mg, 0-24 h after first dose, multiple rising dose | – | urinary excretion | 71.7 mmol
N.N.[Cl][Pt][Cl] | – | KSN/Slc nude mice, SAS xenograft | dose not given, day 2 | – | tumour volume | 47.7 mm3 and 127 mm3 and 39 mm3 and 51.7 mm3 and 135 mm3 and 143 mm3 and 84.7 mm3 and 217 mm3
[131I-].[Na+] | – | human, papillary thyroid carcinoma | dose not given, high-dose radioiodine therapy | – | 1-year survival rate | 95%
CN1CCN(S(=O)(=O)c2cc([N+](=O)[O-])ccc2N(CCOS(C)(=O)=O)CCOS(C)(=O)=O)CC1 | – | NSG mice, sample CB PDX | intraperitoneal, 25 mg/kg weekly x3 | baseline: treated over vehicle | EFS ratio (T/C) | > 66.8
Cc1cccc(C)c1NC(=O)C1CCCCN1 (stereo not drawn) | – | Sprague-Dawley rat, female | sciatic nerve injection, 60 mM | – | sensory block duration | 74.8 ± 14.4 min
C[C@H]1O[C@@H](O[C@H]2CC[C@@]3(C)[C@@H](CC[C@]4(C)[C@@H]3C=C[C@]35OC[C@@]6(CCC(C)(C)C[C@H]63)[C@@H](O)C[C@]54C)[C@]2(C)CO)[C@H](O)[C@@H](O[C@@H]2O[C@H](CO)[C@@H](O)[C@H](O)[C@H]2O)[C@H]1O | – | Mus musculus, chronic-plus-binge ethanol-fed, AAV8-TBG-Null vector, plasma | oral, high dose, 5 h | – | AST activity | 47.2 U/L and 44.3 U/L and 33.5 U/L and 35.5 U/L and 53 U/L and 59.7 U/L
COc1ccc([C@@H](O)c2cc(-c3ncnc4cc(N5CCOCC5)ccc34)c(F)cc2Cl)nn1 | – | mouse, orthotopic M12-eGFP tumour | 125 mg/kg, 504 h, together with: radiotherapy | – | median survival | 43 days
Cc1cn(-c2cc(NC(=O)c3ccc(C)c(Nc4nccc(-c5cccnc5)n4)c3)cc(C(F)(F)F)c2)cn1 | – | human patients | dose not given, 6 months from baseline, caregiver distress, within group | direction not given | change in mean NPI score | 3
c1cncc([C@@H]2CCCN2)c1 | drug discrimination acquisition | drug-naive rat | 5 mg/kg, pretreatment | baseline: saline | response rate | decreased
CC[C@H](C)[C@@H]1NC(=O)[C@@H]2CCCN2C(=O)[C@H](CC(C)C)NC(=O)[C@H](CC(C)C)NC(=O)CNC(=O)[C@@H](NC(=O)[C@@H](NC(=O)[C@H](CC(=O)O)NC(=O)CNC(=O)[C@@H](NC(=O)[C@H](C)NC(=O)CNC(=O)[C@H](CCCCN)NC(=O)[C@H](CC(C)C)NC(=O)[C@H](CC(C)C)NC(=O)[C@H](CCCCN)NC(=O)CNC(=O)[C@@H](NC(=O)[C@@H](N)CC(C)C)C(C)C)C(C)C)C(C)C)CSSC[C@@H](C(=O)O)NC1=O | RNA-seq, item: Frat1 | mouse, traumatic brain injury model, frontal cortex and hippocampus | dose not given | baseline: TBI alone | log2 fold change | -0.851
O=C(O)CNC(=O)c1cc2ccccc2n1Cc1ccc(C2CC2)c2ccccc12 | – | mouse, acute hyperuricaemia model, serum | oral, 2 mg/kg, first screening | – | serum uric acid | 436 µM
c1ccc2c(c1)Nc1ccccc1S2 | – | CT26 tumour-bearing mice | intraperitoneal, 100 mg/kg equivalents daily, day 1 | – | tumour volume | 182 mm³
CCCCC/C=C\C/C=C\C/C=C\C/C=C\CCCC(=O)NCCO | mechanical hypersensitivity, electronic von Frey | male CD1 mouse, CFA inflammatory pain | i.p., 20 mg/kg | baseline: vehicle | duration of effect | 10 to 60 min
CS(=O)(=O)c1ccc(-c2nnc(/C=C/c3nnc(-c4ccc(C#N)cc4)o3)n2-c2ccccc2Cl)nc1 | RNA-seq GSEA, item: FALLER_STEM_MOUSE | organoids, small intestinal, Apc Q1405X, mouse | dose not given, knockout organoids | baseline: DMSO, direction not given | normalized enrichment score | -2.08
CN1CCN(C(C(=O)NCCc2ccc(F)cc2)c2ccc(C#N)cc2)CC1 (stereo not drawn) | immunoblotting | rat, male and female, prefrontal cortex | ip, 100 mg/kg twice daily, 7 days, together with: clavulanic acid 10 mg/kg | baseline: vehicle | GLT-1 protein level | no effect
CCCC[C@H](NC(=O)[C@@H]1CCCN1C(=O)c1coc(C)n1)C(=O)N[C@@H](CC(C)C)C(=O)NC(C)(C)C(=O)N[C@@H](CC(C)C)C(=O)N[C@@H](CC(C)C)C(=O)NC(C)(C)C(=O)NC(C)(C)C(=O)NCCC(=O)NC1(CN(C)C)CCC1 | – | small unilamellar vesicles | concentration not given | – | calcein leakage | 0%
Cc1cc(-c2nc(C(=O)Nc3cc4oc(N5CCOCC5)nc4nc3N3CC[C@@H](O)C3)co2)ccn1 | – | mouse, B16-F10 melanoma brain metastasis | 100 mg/kg | baseline: vehicle | mean overall survival increase | 35%

For quick reference, copied from above:
SMILES | assay | test system | setting | scale | quantity | value
c1ccc2c(c1)Nc1ccccc1S2 | – | CT26 tumour-bearing mice | intraperitoneal, 100 mg/kg equivalents daily, day 1 | – | tumour volume | 182 mm³
CN1CCN(C(C(=O)NCCc2ccc(F)cc2)c2ccc(C#N)cc2)CC1 (stereo not drawn) | immunoblotting | rat, male and female, prefrontal cortex | ip, 100 mg/kg twice daily, 7 days, together with: clavulanic acid 10 mg/kg | baseline: vehicle | GLT-1 protein level | no effect
